Published values gathered from unrelated publications.
Each line is one published result; not all experiments were run side by side. ± gives the spread as reported.
ACTA1: ACTA1, TMR label (Oryctolagus cuniculus, UniProt P68135)
T1: Psmc3ip/Mnd1 R82A/K83A/R84A (Mus musculus); chain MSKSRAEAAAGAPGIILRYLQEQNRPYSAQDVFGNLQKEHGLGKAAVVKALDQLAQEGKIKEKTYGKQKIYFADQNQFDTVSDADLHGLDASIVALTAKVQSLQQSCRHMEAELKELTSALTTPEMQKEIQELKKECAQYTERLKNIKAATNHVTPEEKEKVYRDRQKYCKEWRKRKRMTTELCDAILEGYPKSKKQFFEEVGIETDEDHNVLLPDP; chain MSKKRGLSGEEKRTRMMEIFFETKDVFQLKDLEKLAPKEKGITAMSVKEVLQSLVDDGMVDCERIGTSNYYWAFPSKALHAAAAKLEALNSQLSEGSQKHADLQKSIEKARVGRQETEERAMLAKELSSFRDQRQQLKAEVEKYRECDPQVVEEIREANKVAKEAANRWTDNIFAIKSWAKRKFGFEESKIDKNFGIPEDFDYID
B1: Fmnl3 555-954 N646A (Mus musculus, UniProt Q6ZPF4); chain GLSAIRIKKPIKTKFRLPVFNWTALKPNQINGTVFSELDDEKILEDLDLDRFEELFKTKAQGPALDLICSKNKTAQKAASKVTLLEANRAKALAITLRKAGRSAEEICRAIHTFDLQTLPVDFVECLMRFLPTEAEVKLLRQYERERQPLEELAAEDRFMLLFSKVERLTQRMAGMAFLGNFQDNLQMLTPQLNAIIAASASVKSSQKLKQMLEIILALGNYMNSSKRGAVYGFKLQSLDLLLDTKSTDRKMTLLHFIALTVKEKYPELANFWQELHFVEKAAAVSLENVLLDVKELGRGMELIRRECSIHDNSVLRNFLSTNEGKLDKLQRDAKTAEEAYNAVVRYFGESPKTTPPSVFFPVFVRFIRSYKEAEQENEARKKQEEVMREKQLAQEAKKL
B2: FBN1 115-489 (Homo sapiens, UniProt P35555); chain SIQHCNIRCMNGGSCSDDHCLCQKGYIGTHCGQPVCESGCLNGGRCVAPNRCACTYGFTGPQCERDYRTGPCFTVISNQMCQGQLSGIVCTKTLCCATVGRAWGHPCEMCPAQPHPCRRGFIPNIRTGACQDVDECQAIPGLCQGGNCINTVGSFECKCPAGHKLNEVSQKCEDIDECSTIPGICEGGECTNTVSSYFCKCPPGFYTSPDGTRCIDVRPGYCYTALTNGRCSNQLPQSITKMQCCCDAGRCWSPGVTVAPEMCPIRATEDFNKLCSVPMVIPGRPEYPPPPLGPIPPVLPVPPGFPPGPQIPVPRPPVEYLYPSREPPRVLPVNVTDYCQLVRYLCQNGRCIPTPGSYRCECNKGFQLDLRGECI
B3: Fmnl3 555-954 R782A (Mus musculus, UniProt Q6ZPF4); chain GLSAIRIKKPIKTKFRLPVFNWTALKPNQINGTVFSELDDEKILEDLDLDRFEELFKTKAQGPALDLICSKNKTAQKAASKVTLLEANRAKNLAITLRKAGRSAEEICRAIHTFDLQTLPVDFVECLMRFLPTEAEVKLLRQYERERQPLEELAAEDRFMLLFSKVERLTQRMAGMAFLGNFQDNLQMLTPQLNAIIAASASVKSSQKLKQMLEIILALGNYMNSSKAGAVYGFKLQSLDLLLDTKSTDRKMTLLHFIALTVKEKYPELANFWQELHFVEKAAAVSLENVLLDVKELGRGMELIRRECSIHDNSVLRNFLSTNEGKLDKLQRDAKTAEEAYNAVVRYFGESPKTTPPSVFFPVFVRFIRSYKEAEQENEARKKQEEVMREKQLAQEAKKL
B4: Fmnl3 555-954 K645A (Mus musculus, UniProt Q6ZPF4); chain GLSAIRIKKPIKTKFRLPVFNWTALKPNQINGTVFSELDDEKILEDLDLDRFEELFKTKAQGPALDLICSKNKTAQKAASKVTLLEANRAANLAITLRKAGRSAEEICRAIHTFDLQTLPVDFVECLMRFLPTEAEVKLLRQYERERQPLEELAAEDRFMLLFSKVERLTQRMAGMAFLGNFQDNLQMLTPQLNAIIAASASVKSSQKLKQMLEIILALGNYMNSSKRGAVYGFKLQSLDLLLDTKSTDRKMTLLHFIALTVKEKYPELANFWQELHFVEKAAAVSLENVLLDVKELGRGMELIRRECSIHDNSVLRNFLSTNEGKLDKLQRDAKTAEEAYNAVVRYFGESPKTTPPSVFFPVFVRFIRSYKEAEQENEARKKQEEVMREKQLAQEAKKL
B5: hns (Escherichia coli, UniProt P0ACF8); chain MSEALKILNNIRTLRAQARECTLETLEEMLEKLEVVVNERREEESAAAAEVEERTRKLQQYREMLIADGIDPNELLNSLAAVKSGTKAKRAQRPAKYSYVDENGETKTWTGQGRTPAVIKKAMDEQGKSLDDFLIKQ
B6: HNRNPH1 192-280 (Homo sapiens, UniProt P31943); chain RTHYDPPRKLMAMQRPGPYDRPGAGRGYNSIGRGAGFERMRRGAYGGGYGGYDDYNGYNDGYGFGSDRFGRDLNYCFSGMSDHRYGDGG
B7: DMC1 (Homo sapiens, UniProt Q14565); chain MKEDQVVAEEPGFQDEEESLFQDIDLLQKHGINVADIKKLKSVGICTIKGIQMTTRRALCNVKGLSEAKVDKIKEAANKLIEPGFLTAFEYSEKRKMVFHITTGSQEFDKLLGGGIESMAITEAFGEFRTGKTQLSHTLCVTAQLPGAGGYPGGKIIFIDTENTFRPDRLRDIADRFNVDHDAVLDNVLYARAYTSEHQMELLDYVAAKFHEEAGIFKLLIIDSIMALFRVDFSGRGELAERQQKLAQMLSRLQKISEEYNVAVFVTNQMTADPGATMTFQADPKKPIGGHILAHASTTRISLRKGRGELRIAKIYDSPEMPENEATFAITAGGIGDAKE
B8: TRAP 26-496 (Plasmodium falciparum, UniProt P16893); sequence looked up; chain RDVQNNIVDEIKYSEEVCNDQVDLYLLMDCSGSIRRHNWVNHAVPLAMKLIQQLNLNDNAIHLYVNVFSNNAKEIIRLHSDASKNKEKALIIIRSLLSTNLPYGRTNLTDALLQVRKHLNDRINRENANQLVVILTDGIPDSIQDSLKESRKLSDRGVKIAVFGIGQGINVAFNRFLVGCHPSDGKCNLYADSAWENVKNVIGPFMKAVCVEVEKTASCGVWDEWSPCSVTCGKGTRSRKREILHEGCTSEIQEQCEEERCPPKWEPLDVPDEPEDDQPRPRGDNSSVQKPEENIIDNNPQEPSPNPEEGKDENPNGFDLDENPENPPNPDIPEQKPNIPEDSEKEVPSDVPKNPEDDREENFDIPKKPENKHDNQNNLPNDKSDRNIPYSPLPPKVLDNERKQSDPQSQDNNGNRHVPNSEDRETRPHGRNNENRSYNRKYNDTPKHPEREEHEKPDNNKKKGESDNKYK
Sequence of UniProt Q12280 (whole entry, looked up): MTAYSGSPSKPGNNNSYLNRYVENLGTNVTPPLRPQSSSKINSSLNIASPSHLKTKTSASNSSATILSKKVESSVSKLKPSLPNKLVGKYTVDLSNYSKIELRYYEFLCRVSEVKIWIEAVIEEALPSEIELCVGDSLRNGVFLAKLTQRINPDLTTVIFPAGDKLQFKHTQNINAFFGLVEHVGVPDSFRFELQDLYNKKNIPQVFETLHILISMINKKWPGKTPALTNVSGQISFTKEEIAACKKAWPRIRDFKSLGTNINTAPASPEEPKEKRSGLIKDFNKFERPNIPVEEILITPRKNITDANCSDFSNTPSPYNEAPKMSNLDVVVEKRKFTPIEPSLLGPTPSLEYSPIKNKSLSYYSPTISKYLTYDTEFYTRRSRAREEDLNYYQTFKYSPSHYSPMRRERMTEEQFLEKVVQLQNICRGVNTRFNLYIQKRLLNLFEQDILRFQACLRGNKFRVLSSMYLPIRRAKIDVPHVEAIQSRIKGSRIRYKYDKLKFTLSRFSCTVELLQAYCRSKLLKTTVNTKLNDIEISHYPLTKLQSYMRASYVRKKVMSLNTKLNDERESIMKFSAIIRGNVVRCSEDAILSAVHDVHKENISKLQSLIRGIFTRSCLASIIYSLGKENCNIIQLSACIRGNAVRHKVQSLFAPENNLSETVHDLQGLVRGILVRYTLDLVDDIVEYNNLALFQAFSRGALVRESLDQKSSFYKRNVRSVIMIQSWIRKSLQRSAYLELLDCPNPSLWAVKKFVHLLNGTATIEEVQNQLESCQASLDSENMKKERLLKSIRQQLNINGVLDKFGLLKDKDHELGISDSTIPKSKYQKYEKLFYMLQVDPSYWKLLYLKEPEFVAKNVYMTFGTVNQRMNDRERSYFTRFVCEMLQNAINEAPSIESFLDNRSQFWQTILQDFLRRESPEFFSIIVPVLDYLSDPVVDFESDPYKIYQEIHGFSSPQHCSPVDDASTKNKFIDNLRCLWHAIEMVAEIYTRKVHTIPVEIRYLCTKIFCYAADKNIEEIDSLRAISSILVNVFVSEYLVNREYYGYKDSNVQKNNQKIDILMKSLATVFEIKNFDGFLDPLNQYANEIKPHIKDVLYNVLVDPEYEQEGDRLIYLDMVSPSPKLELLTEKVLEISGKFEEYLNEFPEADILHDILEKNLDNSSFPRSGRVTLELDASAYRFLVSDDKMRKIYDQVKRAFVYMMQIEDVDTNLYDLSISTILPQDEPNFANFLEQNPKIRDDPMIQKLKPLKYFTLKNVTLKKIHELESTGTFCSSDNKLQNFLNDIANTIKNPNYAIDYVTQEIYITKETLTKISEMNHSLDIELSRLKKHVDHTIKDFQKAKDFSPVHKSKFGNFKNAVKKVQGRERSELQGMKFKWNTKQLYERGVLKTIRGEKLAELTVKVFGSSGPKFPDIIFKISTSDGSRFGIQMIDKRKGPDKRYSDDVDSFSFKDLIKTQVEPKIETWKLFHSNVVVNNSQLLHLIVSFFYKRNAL
Sequence of UniProt P95980 (whole entry, looked up): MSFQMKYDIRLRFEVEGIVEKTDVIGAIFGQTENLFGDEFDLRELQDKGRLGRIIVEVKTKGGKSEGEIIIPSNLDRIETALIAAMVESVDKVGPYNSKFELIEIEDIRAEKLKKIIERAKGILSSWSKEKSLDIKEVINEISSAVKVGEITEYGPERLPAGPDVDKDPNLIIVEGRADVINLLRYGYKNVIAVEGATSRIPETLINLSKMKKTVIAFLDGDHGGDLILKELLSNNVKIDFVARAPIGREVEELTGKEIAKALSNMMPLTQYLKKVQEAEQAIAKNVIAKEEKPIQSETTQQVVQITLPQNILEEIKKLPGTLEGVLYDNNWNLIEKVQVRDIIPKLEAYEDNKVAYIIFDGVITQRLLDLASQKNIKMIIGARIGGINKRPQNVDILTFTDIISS
Sequence of UniProt Q9UBX5 (whole entry, looked up): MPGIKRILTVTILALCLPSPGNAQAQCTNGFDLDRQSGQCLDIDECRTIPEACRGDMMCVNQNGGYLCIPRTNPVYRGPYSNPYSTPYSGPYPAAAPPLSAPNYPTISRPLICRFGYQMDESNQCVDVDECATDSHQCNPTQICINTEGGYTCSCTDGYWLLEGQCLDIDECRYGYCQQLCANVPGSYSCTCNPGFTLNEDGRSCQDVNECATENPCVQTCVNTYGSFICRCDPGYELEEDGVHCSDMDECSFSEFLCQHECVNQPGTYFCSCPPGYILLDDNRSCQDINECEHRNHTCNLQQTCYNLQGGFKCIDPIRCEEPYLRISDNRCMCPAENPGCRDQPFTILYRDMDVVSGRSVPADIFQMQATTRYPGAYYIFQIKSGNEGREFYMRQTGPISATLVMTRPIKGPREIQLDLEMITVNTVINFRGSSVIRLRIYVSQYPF
Sequence of UniProt Q0P543 (whole entry, looked up): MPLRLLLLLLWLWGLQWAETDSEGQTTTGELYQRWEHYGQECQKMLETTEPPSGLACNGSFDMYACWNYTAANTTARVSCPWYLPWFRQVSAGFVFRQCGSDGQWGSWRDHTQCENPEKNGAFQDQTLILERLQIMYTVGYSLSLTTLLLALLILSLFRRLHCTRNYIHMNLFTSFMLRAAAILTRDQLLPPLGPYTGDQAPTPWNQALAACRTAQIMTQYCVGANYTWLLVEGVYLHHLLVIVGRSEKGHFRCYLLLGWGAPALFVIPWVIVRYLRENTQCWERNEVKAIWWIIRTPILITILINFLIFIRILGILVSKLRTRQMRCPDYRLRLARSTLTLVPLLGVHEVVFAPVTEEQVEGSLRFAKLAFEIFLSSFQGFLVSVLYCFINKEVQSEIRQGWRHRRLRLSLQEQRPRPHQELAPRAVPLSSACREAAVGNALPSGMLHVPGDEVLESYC
Sequence of UniProt Q08211 (whole entry, looked up): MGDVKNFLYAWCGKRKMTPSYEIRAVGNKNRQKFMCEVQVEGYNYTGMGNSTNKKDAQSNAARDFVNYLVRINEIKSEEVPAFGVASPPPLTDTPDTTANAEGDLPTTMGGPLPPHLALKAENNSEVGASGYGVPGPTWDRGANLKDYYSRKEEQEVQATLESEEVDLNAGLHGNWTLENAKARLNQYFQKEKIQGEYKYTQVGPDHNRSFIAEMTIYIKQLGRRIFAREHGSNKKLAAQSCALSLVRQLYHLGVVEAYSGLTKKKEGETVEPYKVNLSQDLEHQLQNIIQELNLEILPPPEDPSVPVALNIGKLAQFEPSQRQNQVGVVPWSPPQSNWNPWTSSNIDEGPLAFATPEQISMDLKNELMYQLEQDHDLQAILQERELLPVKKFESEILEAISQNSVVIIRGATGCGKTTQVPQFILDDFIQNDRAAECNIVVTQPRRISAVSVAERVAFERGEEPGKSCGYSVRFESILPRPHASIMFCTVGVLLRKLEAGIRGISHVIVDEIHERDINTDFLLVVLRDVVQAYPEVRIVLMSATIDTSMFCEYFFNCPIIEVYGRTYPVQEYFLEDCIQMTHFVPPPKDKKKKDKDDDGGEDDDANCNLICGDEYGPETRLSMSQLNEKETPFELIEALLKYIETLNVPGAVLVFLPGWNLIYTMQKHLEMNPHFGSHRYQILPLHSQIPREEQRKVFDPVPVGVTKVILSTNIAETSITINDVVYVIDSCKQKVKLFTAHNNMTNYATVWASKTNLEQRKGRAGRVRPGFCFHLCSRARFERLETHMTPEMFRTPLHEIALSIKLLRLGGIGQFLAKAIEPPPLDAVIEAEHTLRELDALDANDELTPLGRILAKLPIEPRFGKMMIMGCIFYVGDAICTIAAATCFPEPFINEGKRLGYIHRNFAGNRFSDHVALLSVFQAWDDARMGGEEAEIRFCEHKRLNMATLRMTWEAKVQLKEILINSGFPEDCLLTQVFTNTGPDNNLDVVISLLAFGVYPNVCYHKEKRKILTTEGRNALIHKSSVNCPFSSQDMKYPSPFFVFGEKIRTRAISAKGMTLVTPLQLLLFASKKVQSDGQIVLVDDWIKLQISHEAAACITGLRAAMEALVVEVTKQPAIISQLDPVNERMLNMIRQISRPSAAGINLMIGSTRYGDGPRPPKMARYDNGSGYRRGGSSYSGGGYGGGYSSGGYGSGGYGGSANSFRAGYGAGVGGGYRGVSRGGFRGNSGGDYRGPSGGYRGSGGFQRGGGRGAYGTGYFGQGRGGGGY
Sequence of UniProt P78310 (whole entry, looked up): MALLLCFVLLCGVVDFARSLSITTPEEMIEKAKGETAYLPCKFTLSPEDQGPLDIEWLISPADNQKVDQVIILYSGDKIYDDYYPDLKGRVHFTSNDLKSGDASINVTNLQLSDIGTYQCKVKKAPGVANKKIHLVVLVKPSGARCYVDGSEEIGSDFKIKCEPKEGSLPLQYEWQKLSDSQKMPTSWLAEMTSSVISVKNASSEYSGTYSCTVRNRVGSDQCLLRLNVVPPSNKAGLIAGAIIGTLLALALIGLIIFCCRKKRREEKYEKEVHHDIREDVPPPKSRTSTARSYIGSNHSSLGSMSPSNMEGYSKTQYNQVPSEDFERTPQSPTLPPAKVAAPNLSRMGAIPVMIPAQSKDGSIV

Substance | partner | assay | system | setting | how to read | measurement | value
dnaG (Saccharolobus solfataricus, UniProt P95980) | rrp41/rrp42/rrp4/csl4 exosome, heteromeric cap (Saccharolobus solfataricus) | pull-down | – | – | – | binding | binds
adenovirus type 5 whole particle (human adenovirus type 5, UniProt P11818) | CXADR (Homo sapiens, UniProt P78310) | qPCR | – | – | baseline: input virus, higher = more bound | virus bound to erythrocytes | 90%
B1 (Fmnl3 555-954 N646A) | ACTA1 | AUC | – | KCl 50 mM | – | fraction bound | 0.56 fraction
YAEGTFISDYSIAMDKIRQQDFVNWLLAQKGKKNDWKHNLTQ (Gip mature (Rattus norvegicus, UniProt Q06145)) | Gipr (Mus musculus, UniProt Q0P543) | radioligand binding | – | – | – | Ki | 0.27 nM
B2 (FBN1 115-489) | FBLN5 42-448 (Homo sapiens, UniProt Q9UBX5) | ELISA | – | – | – | binding | binds
C3b/Bb C3bBb complex (Homo sapiens) | scn fragment (Staphylococcus aureus) | native gel | – | 4 °C, together with: SCIN 1 µM | – | half-life | > 20 h
BUD4 fragment (Saccharomyces cerevisiae) | IQG1 295-823 (Saccharomyces cerevisiae, UniProt Q12280) | two-hybrid | – | – | higher = stronger interaction | beta-galactosidase activity | 401.16 ± 0.4 Miller units
rpoS (Escherichia coli, UniProt P13445) | rpoB/rpoC core RNA polymerase (Escherichia coli) | pausing efficiency | – | consensus TEC | – | apparent Kd | 320 nM
B3 (Fmnl3 555-954 R782A) | ACTA1 | AUC | – | KCl 50 mM | – | fraction bound | 0.7 fraction
N-formyl-Met-Leu-Phe, N-formyl | FPR1 (Homo sapiens, UniProt P21462) | inhibition of forskolin-stimulated cAMP, agonist | CHO-K1 | – | – | pEC50 | 10.2 pEC50
B4 (Fmnl3 555-954 K645A) | ACTA1 | AUC | – | KCl 50 mM | – | fraction bound | 0.98 fraction
B5 (hns) | Tn5 transposase transpososome with end DNA E54K/M56A/L372P (Tn5 transposon, UniProt Q46731) | EMSA | – | together with: heparin | baseline: without H-NS, higher = more transpososome | fold increase in transpososome formation | 17 fold
B6 (HNRNPH1 192-280) | DHX9 1151-1270 (Homo sapiens, UniProt Q08211) | trapping in hydrogel, hydrogel binding | – | pH 7.5, 4 °C, NaCl 200 mM | – | binding | binds
ACE2/ALB albumin fusion (Homo sapiens) | FCGRT (Homo sapiens, UniProt P55899) | serum sandwich ELISA | hFcRn+/+ hAlb+/+ transgenic mice | 4 mg/kg, in vivo, intravenous | – | elimination half-life | 13.5 h
B7 (DMC1) | T1, Psmc3ip/Mnd1 R82A/K83A/R84A (Mus musculus) | pull-down | – | – | – | binding | binds
B8 (TRAP 26-496) | ITGAV/ITGB3 ectodomain heterodimer 31-992 (Homo sapiens) | SPR | – | – | – | half-life | > 0.05 h

Repeated from above:
Substance | partner | assay | system | setting | how to read | measurement | value
B8 (TRAP 26-496) | ITGAV/ITGB3 ectodomain heterodimer 31-992 (Homo sapiens) | SPR | – | – | – | half-life | > 0.05 h
B6 (HNRNPH1 192-280) | DHX9 1151-1270 (Homo sapiens, UniProt Q08211) | trapping in hydrogel, hydrogel binding | – | pH 7.5, 4 °C, NaCl 200 mM | – | binding | binds
